# Measurements of several laboratories.
# Numbered parts are unrelated; each lists some results of a single study.

# Study 1 — technique: protein binding microarray; molecule type: double-stranded DNA, one strand shown; sample: in vitro; tested at: not given; baseline: not given; reading: higher = stronger binding
# Target: Histone acetyltransferase KAT6A, winged helix 2, GST fusion (KAT6A, Homo sapiens, UniProt Q92794, residues 85-181)
# Setting: 8-mer, flanks averaged, mean of 2 arrays, mostly near background
# Target sequence (chain): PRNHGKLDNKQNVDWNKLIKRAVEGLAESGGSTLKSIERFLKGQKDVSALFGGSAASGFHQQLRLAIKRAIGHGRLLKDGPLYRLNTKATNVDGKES
Sequence,E-score
AGACAACC,-0.0442
CCCAGTAG,-0.0873
ATAAGGGG,-0.125
GCGTGTCA,0.146
CAACTCGG,0.0519
TACTGACA,0.107
CCCTATAA,-0.306
AGAACTAG,-0.0188
CACTCAGA,0.146
GAAGACGC,-0.0172
CCCCTTGA,0.0929
AATTGGAT,-0.0161
ATGTCTTC,-0.0158
AAAGGGTA,-0.0875
ACACATAT,-0.171
ATAATTAA,0.259
ATAAGAGA,-0.0685
GCGCTCTA,0.121
GTGCACTA,-0.0505
ACCTCGCA,0.0243
CCGACCAA,0.162
CTTCAACA,-0.0293
ATACTCAG,0.109
AGAGTATG,-0.096
CGCGAATA,0.0675

# Study 2 — technique: RNA Bind-n-Seq; molecule type: RNA; sample: in vitro; tested at: 365 nM; baseline: no-protein control; reading: higher = stronger binding
# Target: RNA binding protein fox-1 homolog 2, RRM domain, GST-SBP tag (RBFOX2, Homo sapiens, UniProt O43251-10, residues 100-194)
# Setting: natural RNA segment, single round, ends assumed
# All sequences stand within: GGGAGUUCUACAGUCCGACGAUC … UGGAAUUCUCGGGUGCCAA
# Target sequence (chain): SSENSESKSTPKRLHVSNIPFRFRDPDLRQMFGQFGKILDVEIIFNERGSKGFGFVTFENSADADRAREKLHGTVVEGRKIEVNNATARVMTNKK
Sequence,RBNS enrichment (R)
AUGGCCUUUGUGGGAUUUAAUUCGGGGUUUGCUCAUCCCUUUACUUUAGGUGGAACUAUUUUCAGUGAAAUUUUCAAAAGGUAUUAACAGCACAGACAGUGUUUUUGACC,0.537
UCCUGUAUAACAGACUGAGUCUAUUUAUAUUUUCUUUUUUUUAAGACUGUCUAGAAAUUUUGUGUAUUAUGAGGGGAAAAAAGGAAAAGCUUGAAUCUGUGUAGUCUCUG,3.59
AAUCCUAGCAGGAGAGAGGCUCUGGGGCAGCCCCCAUGGGCUCCUGCCCCUUUCAGGCCUACAGCCACAUCCCCAAGCCCACCAGGUGUCAGGAUAGUCACAGUGAUACC,0.327
UGAGUGAUUCCCCUCUCUCUGCUAUGCUGGAGACGGUUCCAGCCUGGAAAGCGGCCAAGUUCAUCUUCUCACUGUGAGUGGAAGCUGGAUCGGGCCCCCGUAGUCCUGGC,0.255
GGCUUUGCCCCCGUGGAUUUGUCAGACUUCGUGGAGCAGUGUUAAGGUGGACAUGGGAUUCCUCACUGGGAAGAGAGUUUUUCCCAUGCAGAGAGCCCCAUUAUCUCCUC,0.373
AGAGAUCUAAGUCUGAUAUUUAAGGAGUGAUAGCAUCUUGCAUACUUAAGAAGGCUUAAAAGACUGCAUGGUUUAAACCCUAGAAACAUAAAUGGAAUGUUUCUGCCUCA,4.38
UUAUUUUUUAUUUUAAAAGAAAAUUGACUUAUUUACCACAAGCUAUUUUUUUCCCUUCUGGCUGUAAGGUUUGUACAGACUGGUUUGGUAAAUGCUAAACUUUUGUGUCU,1.34
GGCCAACCUGCCUUUCCCCAGAAGGAGUGAUUUUUCUAUCGGCACAAAAGCACUAUAUGGACUGGUAAUGGUUACAGGUUCAGAGAUUACCCAGUGAGGCCUUAUUCCUC,0.383
UUUUAGGCUUGUAGGUUUACUUCCUAGUUUCUUUAAACACACCUGAUGGUAAAGAACACAUUGAAAGUACUGCAGGUUGCAGUUGACAGUACCCACAUGGUCUGCAAAAG,0.372
UGAAAGGCGAGCAGAAGCAGCAUGGACAAGAAGGCUGGGGCUGGCCCUGGGGCUCAUCAUGAUGCUUUCCUGGAUCUGUUGCUUCAUCUGCAAGCUGAGGGUGUUUGUUC,0.335
UGGGUGGGGGUGCAGUCCAUGUUCAAUGUUCCAGCAACGUGUGUAUGUGUGUGAGUAUGUGUGUAAAGACUAUGUGGCCAAAAUACCAUCUGGCCAGACGGGCCCACCCA,1.12
AACUAGCAACCCCUUCAAGGACUGAAGAGCUGCCCCAACGGCAUGCUCCAGAUAAUCUUGUCCCUGCUCCUCACUUCCACAGGGGACAUUGUGAGGCCACUGGCAUGGAU,2.62

# Study 3 — technique: protein-binding microarray; molecule type: double-stranded DNA, one strand shown; sample: in vitro; tested at: 2540 nM top; setting: 60-bp whole probe; together with: salmon DNA 0.4 mg/ml; baseline: random background probes; reading: higher = stronger binding; all sequences stand within: GCCTAGCAC … GTCTTGATTCGCTTGACGCTGCTG
# Target: Interferon regulatory factor 3, full length, phosphomimetic (IRF3, Homo sapiens, UniProt Q14653, residues 1-427, S386D/S396D/S398D/S402D/T404D/S405D)
# Sequence of UniProt Q14653 (whole entry, unmodified, looked up): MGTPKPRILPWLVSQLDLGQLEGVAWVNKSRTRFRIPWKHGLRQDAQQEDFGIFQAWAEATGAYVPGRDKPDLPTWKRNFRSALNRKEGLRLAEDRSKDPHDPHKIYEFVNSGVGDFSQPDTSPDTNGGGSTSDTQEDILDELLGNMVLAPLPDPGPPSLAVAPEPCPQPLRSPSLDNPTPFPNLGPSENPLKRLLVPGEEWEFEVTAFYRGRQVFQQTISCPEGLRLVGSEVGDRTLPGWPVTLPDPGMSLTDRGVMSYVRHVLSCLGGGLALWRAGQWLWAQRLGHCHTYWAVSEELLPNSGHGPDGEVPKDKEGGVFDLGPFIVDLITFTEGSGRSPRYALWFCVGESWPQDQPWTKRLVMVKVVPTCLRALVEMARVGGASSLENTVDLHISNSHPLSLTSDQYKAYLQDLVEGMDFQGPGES
Sequence,fitted relative affinity [z-score]
TTAGGTATCCTTCTCCGTTAGTGCTAG,6.44
GACGGTCTCGGTTTCGGGGCGTGCTAG,3.37
GACGGTCTCGGTCCCGGGACGTGCTAG,0.322
CACGAACTGGGGTATCGAGACGTGCTA,-0.336
GACCGACTGGACACTGGGGACGTGCTA,-0.299
TTAGATTTCGGGACTGCATTAGTGCTA,1.34
GCTTTCCCCTTGGACTCTTTGTGCTAG,2.55
TTTACTTTCTGAATGCTCCCGTGCTAG,5.62
TTAGATCTCAGTCTAGATTAGTGCTAG,0.291
CAAGTTTCTCCTTTGTAAATGTGCTAG,2.32
GTCAGCGGTGGTGTTCGGTGGTGCTAG,-1.2
GACGGACTGGGGTTTCGGCACGTGCTA,-0.112
GACGGACTGCTACTGCTCACGTGCTAG,-0.757
GACGGACGGCTACTGCTGACGTGCTAG,-1.08
TTAGTTTCCAGTTTCGATTAGTGCTAG,8.19
TTAGGTTTCCGTCTCGGTTAGTGCTAG,7.2
GACGGTTACGGGTTTCGGGACGTGCTA,1.26

# Study 4 — technique: RNA Bind-n-Seq; molecule type: RNA; sample: in vitro; tested at: 1 µM; setting: whole 134-nt RNA, ends assumed; together with: 150 mM KCl; baseline: input library; reading: higher = stronger binding
# Target: Ras GTPase-activating protein-binding protein 1, RRM domain (G3BP1, Homo sapiens, UniProt Q13283)
# Sequence of UniProt Q13283 (whole entry, looked up): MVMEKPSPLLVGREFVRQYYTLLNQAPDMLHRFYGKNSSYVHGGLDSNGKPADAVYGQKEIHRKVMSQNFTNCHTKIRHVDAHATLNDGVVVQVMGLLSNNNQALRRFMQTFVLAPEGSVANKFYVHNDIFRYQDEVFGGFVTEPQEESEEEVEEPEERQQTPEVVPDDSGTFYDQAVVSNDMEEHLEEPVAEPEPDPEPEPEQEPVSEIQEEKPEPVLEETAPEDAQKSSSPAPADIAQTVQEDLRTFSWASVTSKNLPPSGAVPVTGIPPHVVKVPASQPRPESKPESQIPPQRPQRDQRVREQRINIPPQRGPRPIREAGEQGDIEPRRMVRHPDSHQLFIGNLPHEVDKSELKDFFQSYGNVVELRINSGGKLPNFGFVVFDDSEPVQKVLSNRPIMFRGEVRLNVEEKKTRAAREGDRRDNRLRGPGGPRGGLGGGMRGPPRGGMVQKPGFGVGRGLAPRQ
# All sequences stand within: GGGAGUUCUACAGUCCGACGAUC … UGGAAUUCUCGGGUGUCAAGG
Sequence,log2 enrichment
UGGCCCUGGUGGCAUGCGGGGAGGAAGAGGUGGGCUCAUGGAUCGUGGUGGUCCCGGUGGAAUGUUCAGAGGUGGCCGUGGUGGAGACAG,0.939
AAGUCCUGUGCUACACAUCGUAUGUACCGAAUCGGGGUGGGGAAAAAGGGGUGGGGAAAGUAUUAUGUUACGCCGUUCGGAUCUGCACUU,0.808
CAAGUCCUGUGCUACACAUCGUAUGUACCGAAUCGGGUGGGAAAGGGUUUUUGGGAAAGUAUUAUGUUACGCCGUUCGGAUCUGCACUUC,0.692
GUCCUGUGCUACACAUCGUAUGUACCGAAUCGGGGUUUUGGGUUUUGGGGUUUUGGGGAAAGUAUUAUGUUACGCCGUUCGGAUCUGCAC,0.325
UCAAGUCCUGUGCUACACAUCGUAUGUACCGAAUCGGAAAGGGGAAAGGAAAGGAAAGUAUUAUGUUACGCCGUUCGGAUCUGCACUUCC,-0.257
UCCUGUGCUACACAUCGUAUGUACCGAAUCGGGUUUUUUUGGGAAAAAGGGUUUUUGGGAAAGUAUUAUGUUACGCCGUUCGGAUCUGCA,-0.245
CAAGUCCUGUGCUACACAUCGUAUGUACCGAAUCGGUUUUUGGUUUUUUUGGUGGAAAGUAUUAUGUUACGCCGUUCGGAUCUGCACUUC,-0.332
UGUGAGACUGAAGAUUAUGGAGAAAAGUUUGAUGAAAAUGAUGUGAUUACAUGUUUUGCUGUAAGUUAAAGCUAACUUUCUAUGUAUAAA,-0.043
UCAAGUCCUGUGCUACACAUCGUAUGUACCGAAUCGGAAAAAGGUUUUUGGAGGAAAGUAUUAUGUUACGCCGUUCGGAUCUGCACUUCC,-0.204
GCAGGAAGUAAAAACAAAUGGAAAUGCUUCGGAUAGUGGCAGGGGUGGGGGUUGCUAAGGAAAGGGUGGGAUGGGAGUGGGUAAAGAGAU,1.02
UUCAUUCCCAAGGGAGGCCAUGUCUGGAGAUAGACCUUGAAUUUAAUAAAUUUUAGGCACUAUACCAUUUCAGUGGAGAAAAUUGUUGGG,-0.488
CUGUGCUACACAUCGUAUGUACCGAAUCGGCCCCCCCGGGGCCCCCCCGGGCCCCCCCGGGAAAGUAUUAUGUUACGCCGUUCGGAUCUG,-0.544
ACCAUGCAGGUGGGCAUCUUUGGGAACUGGGGCAAGGGGGGGAUAGGGAGGGGGGUAACACUUUGGGAACAGGUGGUCCCAGGUCGUUUC,-0.621
GUCCUGUGCUACACAUCGUAUGUACCGAAUCGGGGUUUUUUGGUUUUUUGGUUUUUUGGAAAGUAUUAUGUUACGCCGUUCGGAUCUGCA,-0.198

# Some of these lines once more (study 3):
Sequence,fitted relative affinity [z-score]
CAAGTTTCTCCTTTGTAAATGTGCTAG,2.32
TTAGATCTCAGTCTAGATTAGTGCTAG,0.291
GACGGTTACGGGTTTCGGGACGTGCTA,1.26
GACGGACTGCTACTGCTCACGTGCTAG,-0.757
TTAGTTTCCAGTTTCGATTAGTGCTAG,8.19
GACGGTCTCGGTTTCGGGGCGTGCTAG,3.37
TTAGATTTCGGGACTGCATTAGTGCTA,1.34
